Experimental data from different studies.
Compare with care: the assays were run in different laboratories. Values joined by “and” are separate records of one study, mostly repeats; a detail may differ. ± marks the error that the study gave.

SMILES | test | system | setting | scale | endpoint | result
CO.COc1ccc2c(c1)c(CC(=O)[O-])c(C)n2C(=O)c1ccc(Cl)cc1.COc1ccc2c(c1)c(CC(=O)[O-])c(C)n2C(=O)c1ccc(Cl)cc1.O.[Co+2].c1ccc(Nc2ccccn2)nc1 | ABTS | DMSO | concentration not given | – | ABTS radical cation scavenging | 95.17 ± 0.24%
O=S(=O)(NCc1ccncc1)c1ccc(C2CCCCC2)cc1 | Y maze | CK littermate mice | ip, 0.3 mg/kg daily, 6 wk | above chance | novel arm preference | 16.3 ± 11.1%
CN1CCC[C@]1(C)/C=C/S(=O)(=O)NC(=O)Nc1c2c(cc3c1CCC3)CCC2 | – | human, whole blood ex vivo | 100 mg single dose, 3 h, single ascending dose, together with: LPS and ATP | – | IL-1β inhibition | 99.5%
COc1ccc(NC(=O)c2ccc3[nH]c(-c4ccc(N(C)C)cc4)nc3c2)cn1 | – | Lewis lung carcinoma, mice, syngeneic graft, subcutaneous | intraperitoneal, 25 mg/kg daily, day 3 | – | tumour volume | 164 mm3 and 222 mm3 and 209 mm3 and 144 mm3 and 111 mm3
COc1cc(N2CCN(C(=O)C3CCCN3)CC2)ccc1Nc1ncc(Cl)c(Nc2ccccc2P(C)(C)=O)n1 (centres unmarked) | – | nude mice, NCI-H3122 xenograft | intraperitoneal, 10 mg/kg every other day, day 16 | – | tumour volume | 76.6 mm3 and 163 mm3 and 160 mm3 and 133 mm3 and 131 mm3
COc1cnc2cccc(N3CCc4c(cc(Cn5ccnc5)cc4-c4cn(C)nc4C(F)(F)F)C3=O)c2c1 | – | BALB/c nude mice, MV4-11 xenograft | intraperitoneal, 50 mg/kg, day 14 | – | tumour volume | 169 mm3 and 154 mm3 and 160 mm3 and 186 mm3 and 180 mm3 and 231 mm3 and 181 mm3 and 153 mm3
COc1cc(O)ccc1CCC(c1ccc(O)cc1)c1cc2c(c(C)c1O)OC(c1ccc(O)cc1)CC2 (mixture of isomers) | – | human blood | 10 µM, together with: A23187 | – | 4-HDHA level | 65 ± 32 pg/mL
CC(C)[C@H](NC(=O)[C@H](CC(=O)O)NC(=O)[C@@H](NC(=O)[C@H](Cc1c[nH]c2ccccc12)NC(=O)[C@H](CCC(=O)O)NC(=O)[C@H](C)NC(=O)[C@H](CC(=O)O)NC(=O)CNC(=O)[C@H](Cc1ccc(O)cc1)NC(=O)[C@H](Cc1ccc(OP(=O)(O)O)cc1)NC(=O)[C@H](Cc1ccc(O)cc1)NC(=O)CCNC(=O)c1ccc(C(=O)[O-])c(-c2c3ccc(=[N+](C)C)cc-3oc3cc(N(C)C)ccc23)c1)C(C)C)C(=O)N[C@@H](CO)C(=O)O | toluidine blue staining | ApoE-/- mice, plaque | dose not given, 21 days | – | necrotic core area | 34.6 ± 2.46%
COc1ccc(C(=O)CCc2cc(C(CCc3ccc(O)cc3OC)c3ccc(O)cc3)c(O)cc2OC)cc1 (racemic) | – | human blood | 10 µM, together with: A23187 | – | 5-HEPE level | 124 ± 42 pg/mL
COC1CN([C@H]2CC[C@H]([C@@]3(C)Oc4c(Cl)cc(C(=O)NCc5c(SC)cc(C)[nH]c5=O)c(C)c4O3)CC2)C1 | RNA-seq, measured: CFAP43 | human, whole blood | dose not given, 24 h | reference: pretreatment baseline | log2 fold change | 2.3
CC(=O)[O-].O.[Cu+2].[O-]c1ccc(Br)cc1C=NCCN1CCOCC1 | DPPH radical scavenging | – | 40 µM | – | inhibition | 18.5%

For quick reference, copied from above:
SMILES | test | system | setting | scale | endpoint | result
COc1ccc(C(=O)CCc2cc(C(CCc3ccc(O)cc3OC)c3ccc(O)cc3)c(O)cc2OC)cc1 (racemic) | – | human blood | 10 µM, together with: A23187 | – | 5-HEPE level | 124 ± 42 pg/mL
